Published values of several laboratories.
Compare with care: the assays were run in different laboratories. Several values in a cell are separate wells, animals, samples, runs or records. ± marks the error that the study gave.
ZBTB11/CRBN: ZBTB11/CRBN (Homo sapiens, UniProt O95625+Q96SW2)

Compound = Nc1nc2c(ncn2[C@@H]2O[C@H](COP(=O)(O)O)[C@@H](O)[C@H]2O)c(=O)[nH]1; target or system = GUK1 (Homo sapiens, UniProt Q16774); test = substrate, NADH-coupled; conditions = KCl 50 mM, enzyme 2 nM; endpoint = Vmax; result = 0.154 µM/s
Compound = COc1cc(-c2cncc3c2CN(C)Cc2cc(N4CCNCC4)ccc2-3)cc(OC)c1OC; target or system = Phosphatidylinositol 4,5-bisphosphate 3-kinase catalytic subunit alpha isoform, with p65 alpha (Pik3ca, Mus musculus, UniProt P42337); test = kinase activity; conditions = 1 µM, p110a/p65a)(m mouse, with: ATP 10 µM; how to read = relative to: DMSO; endpoint = remaining activity; result = 89%
Compound = C=CC(=O)N1CCC(COCC(=O)N2CCN(c3nc(-c4cnc(N)nc4C(F)F)nc(N4CCOC[C@@H]4C)n3)CC2)CC1; target or system = Cyclin-dependent kinase 4, with cyclin D3 (CDK4, Homo sapiens, UniProt P11802); test = KINOMEscan; conditions = 1 µM; endpoint = remaining binding; result = 75%
Compound = Nc1ncnc2c1ncn2[C@@H]1O[C@H](COP(=O)(O)CP(=O)(O)OP(=O)(O)O)[C@@H](O)[C@H]1O; target or system = P2X purinoceptor 1 (P2RX1, Homo sapiens, UniProt P51575, S286A); test = saturation binding; test system = HEK293; conditions = 1 nM; endpoint = specific binding; result = 268 CCPM and 142 CCPM and 148 CCPM
Compound = CC[C@@H](C)[C@@H](NC(=O)[C@@H](Cc1ccc(O)cc1)NC(=O)[C@H]1CCCN1C(=O)[C@@H](CCCNC(=N)N)NC(=O)[C@H](N)Cc1c[nH]cn1)C(=O)N[C@H](C)C(=O)N[C@H](Cc1c[nH]cn1)C(=O)N[C@H](CCCNC(=N)N)C(=O)N[C@@H](C(=O)N[C@H](Cc1ccc(O)cc1)C(=O)N[C@H](CO)C(=O)N[C@H](Cc1ccccc1)C(N)=O)C(C)C; target or system = Transferrin receptor protein 1 (Tfrc, Mus musculus, UniProt Q62351); test = flow cytometry; test system = RAW264.7; conditions = 2 h, pH 7.4, unit not given; how to read = relative to: 0 h; endpoint = surface expression; result = 0.955 and 0.967
Compound = O=C(O)c1cc(=O)[nH]c(=O)[nH]1; test = binding, equilibrium dialysis LC-MS; conditions = 5 µM, thermostabilized A2AR-BRIL construct; how to read = relative to: no-protein control, direction not given; endpoint = z-scored log2 fold change; result = 0.365
Compound = O=C(O)CCc1nccs1; target or system = Ubiquitin carboxyl-terminal hydrolase 39, ZnF-UBD domain (Homo sapiens, UniProt Q53GS9); endpoint = Kd; result = > 1000 µM
Compound = CCN1CCN(c2cc(N3CCN(CC)CC3)nc(NCCNc3ccnc4cc(Cl)ccc34)n2)CC1; target or system = NR1D1 (Homo sapiens, UniProt P20393); test = reporter gene, Gal4 hybrid reporter; conditions = 20 µM; how to read = relative to: vehicle; endpoint = activation; result = 1.33 fold
Compound = OC[C@H]1O[C@@H](n2cnc3c(O)nc(O)nc32)[C@H](O)[C@@H]1O; test = binding, equilibrium dialysis LC-MS; conditions = 5 µM, thermostabilized A2AR-BRIL construct; how to read = relative to: no-protein control, direction not given; endpoint = z-scored log2 fold change; result = -0.0764
Compound = Cc1ncsc1-c1ccc(CNC(=O)[C@@H]2C[C@@H](O)CN2C(=O)[C@@H](NC(=O)CCCCCCCCCCCC(=O)NCCCCC#Cc2cccc(-c3nn(-c4nc(C(=O)O)cs4)c(CC4CC4)c3Cc3ccc(S(N)(=O)=O)cc3)c2)C(C)(C)C)cc1; target or system = LDHA (Homo sapiens, UniProt P00338); test = degrader, western blot; test system = PANC-1; conditions = 1 µM; endpoint = time to maximal degradation; result = 48 h
Compound = [H]/N=C(/N)NCC(=O)O; target or system = SLC6A6 (Homo sapiens, UniProt P31641, L306A); test = binding, microscale thermophoresis; conditions = 244 nM, room temperature, with: 50 nM labelled protein; how to read = higher = more binding; endpoint = normalised MST signal; result = 0.0483
Compound = Nc1ncnc2c1ncn2[C@@H]1O[C@H](COP(=O)(O)OP(=O)(O)OP(=O)(O)O)[C@@H](O)[C@H]1O; target or system = P2X purinoceptor 7 (P2rx7, Rattus norvegicus, UniProt Q64663, I214A); test = ion current, agonist, two-electrode voltage clamp; test system = Xenopus laevis oocytes; conditions = 33.3 µM; how to read = relative to: highest concentration response; endpoint = normalized current; result = 0.13 and 0.174 and 0.0791
Compound = COc1cc(-c2cc(C(C)=O)n3ccccc23)cc(OC)c1Cn1ccnc1; target or system = Bromodomain-containing protein 3, BD2 (BRD3, Homo sapiens, UniProt Q15059); endpoint = ΔTm; result = 4.8 °C
Compound = O=C1CCC(N2C(=O)C=C(Nc3cccc(C4(NCCc5ccc(Cl)c(C(F)(F)F)c5)CCC4)c3)C2=O)C(=O)N1 (stereo not shown); target or system = ZBTB11/CRBN; test = degrader, HiBiT; test system = MIA PaCa-2 (ZBTB11/CRBN-HiBiT knock-in); conditions = 10 µM, 5 h; endpoint = Dmax; result = 60%
Compound = CN(C)C(=O)C(CCN1CCC(O)(c2ccc(Cl)cc2)CC1)(c1ccccc1)c1ccccc1; target or system = Calcium-activated potassium channel subunit alpha-1, with LRRC26 γ1 subunit (KCNMA1, Homo sapiens, UniProt Q12791); test = BK channel conductance, inside-out patch clamp; conditions = BKα/γ1, Vm 100 mV, nominally Ca2+-free; endpoint = Hill coefficient; result = 0.77 ± 0.067
Compound = N=c1n(CCN2CCCCC2)c2ccccc2n1CC(O)c1cccc(Br)c1 (stereo not shown); target or system = CatSper channel complex (Homo sapiens, UniProt Q7RTX7+Q86XQ3+Q8NEC5+Q96P56); test = ion current, whole-cell patch clamp; test system = human sperm; conditions = 10 µM, at +80 mV; endpoint = outward current density; result = 35 ± 4 pA/pF
Compound = [2H]c1cc(C)c(NC(=O)c2cnc(Nc3cc(N4CCCCC4)nc(C)n3)s2)c(Cl)c1; target or system = KIT (Homo sapiens, UniProt P10721, D816Y); conditions = 0.01 µM; endpoint = inhibition; result = 30 to 90%
Compound = CC(C)C[C@H](N)C(=O)Nc1ccc2ccccc2c1; target or system = rat neuron-specific aminopeptidase; test = substrate; endpoint = Km; result = 1 µM
Compound = O=C(O)c1ccc(OCCCc2ccc(OCCCCOC3CCCCC3)cc2)c(C(=O)NC2CCCC(C(=O)O)C2)c1 (stereo not shown); target or system = CYSLTR2 (Homo sapiens, UniProt Q9NS75); test = antagonist, NanoBiT; conditions = 5 µM, with: LTC4 or LTD4; endpoint = GRK recruitment; result = inhibited
Compound = N=C(N)Nc1nc2ccccc2[nH]1; target or system = HVCN1 (Homo sapiens, UniProt Q96D96, F149A); test = proton current, inhibitor, inside-out patch clamp; endpoint = Hill coefficient; result = 0.89 ± 0.05
Compound = CCCCCCCC/C=C\CCCCCCCC(=O)NCCc1ccc(O)c(O)c1; target or system = Trpv1 (Mus musculus, UniProt Q704Y3, S511A); test = ion current, agonist, whole-cell patch clamp; conditions = S511A; how to read = relative to: 3 mM 2-APB; endpoint = maximal open probability; result = 0.77 ± 0.14
Compound = CN(C)C(=O)c1cc2cnc(Nc3ccc(-c4ccc5c(=O)cc(N6CCOCC6)oc5c4)cc3)nc2n1C1CCCC1; target or system = Cyclin-dependent kinase 4, with cyclin D1 (CDK4, Homo sapiens, UniProt P11802); test = KINOMEscan binding; conditions = 1.0 µM; how to read = relative to: control; endpoint = remaining binding; result = 2.6%
Compound = CC(C)CC[C@@H](O)[C@@H](C)[C@H]1CC[C@H]2[C@@H]3CC=C4C[C@@H](O)CC[C@]4(C)[C@H]3CC[C@]12C; target or system = CYP11A1 (Homo sapiens, UniProt P05108); test = substrate binding; conditions = with: adrenodoxin 40-fold excess; how to read = relative to: without adrenodoxin; endpoint = Kd decrease; result = 2.1 fold and 2 fold
Compound = O=C(COP(=O)(O)O)[C@@H](O)[C@H](O)[C@H](O)COP(=O)(O)O; target or system = Heterogeneous nuclear ribonucleoprotein U-like protein 2 (Homo sapiens, UniProt Q1KMD3); test = thermal proteome profiling, measured: HNRNPUL2; test system = HepG2 cell lysate; conditions = concentration not given, 57 over 37 °C, mean; how to read = relative to: compound over control; endpoint = thermal stability ratio; result = 0.659
Compound = O=c1nc(SCc2cc(F)cc(C(F)(F)F)c2)nc(SCc2ccc3sccc3c2)[nH]1; target or system = TOP2A (Homo sapiens, UniProt P11388); test = DNA relaxation; conditions = 7.8 µM, replicate 1; endpoint = relaxed DNA; result = 98.1%
Compound = N#Cc1ccn2c(-c3ccncc3)c(-c3ccc(F)cc3)nc2c1; target or system = Negative regulator of the PHO system (PHO85, Candida albicans, UniProt Q9HGY5); test = kinase binding, competitor, MIB/MS competition, measured: PHO85; test system = Candida albicans cell lysate; conditions = 10 µM; how to read = relative to: DMSO; endpoint = log2 fold change; result = 0.39
Compound = O=C(O)c1ccc(Nc2ncc3c(n2)-c2ccc(Cl)cc2C(c2c(F)cccc2F)=NC3)cc1; target or system = human PAK5(h); test = kinase activity; conditions = 1 µM; endpoint = remaining activity; result = 100%
Compound = Nc1ncnc2c1cnn2C1CCCCC1; target or system = Inositol-tetrakisphosphate 1-kinase (Homo sapiens, UniProt Q13572); test = binding, microscale thermophoresis; conditions = highest compound concentration, with: increasing ATP; how to read = relative to: no ATP; endpoint = fold increase in apparent Kd; result = ~40 fold
Compound = CC[C@@H]1[C@H](F)C(=O)N[C@@H]1COc1nccc2cc(C(N)=O)c(OC)cc12; target or system = TP53RK (Homo sapiens, UniProt Q96S44); test = ATP probe binding, KiNativ profiling, measured: ATP loop probe site; test system = THP-1 cell lysate; conditions = 0.04 mM; endpoint = inhibition; result = 5.2%
Compound = O=c1cc(-c2ccc([N+](=O)[O-])cc2)[nH]c2c(-c3ccc(Cl)cc3)c(Cc3ccccc3)nn12; target or system = 2-(3-amino-3-carboxypropyl)histidine synthase subunit 2 (DPH2, Homo sapiens, UniProt Q9BQC3); test = thermal stability, binder, thermal proteome profiling; test system = RD, cell lysate; conditions = 50 µM, 0.5% DMSO; how to read = relative to: DMSO vehicle; endpoint = melting temperature shift; result = 3.5 °C
Compound = COCCNc1nc2ccc(C#CC3(O)CCCCC3)cc2n1-c1ccnc(N)n1; target or system = MAP4K4 (Homo sapiens, UniProt O95819); test = enzyme activity, inhibitor, Z'-LYTE; conditions = 1 µM; how to read = relative to: no-inhibitor control; endpoint = remaining kinase activity; result = 27.6%
Compound = C1=C/COCc2cc(ccc2OCCN2CCCC2)Nc2nccc(n2)-c2cccc(c2)COC/1; target or system = BMPR2 (Homo sapiens, UniProt Q13873); conditions = concentration not given; endpoint = percent of control; result = 80%
Compound = O=C1CCC(N2C(=O)C=C(Nc3cccc(S(=O)(=O)NCCc4ccc(C(F)(F)F)c(Cl)c4)c3)C2=O)C(=O)N1 (stereo not shown); target or system = ZBTB11/CRBN; test = protein degradation, degrader, HiBiT luminescence; test system = MOLT-4; endpoint = Dmax; result = 50%
Compound = NS(=O)(=O)c1ccc(NC(=O)Nc2ccc(F)cc2)cc1; target or system = CA12 (Homo sapiens, UniProt O43570); test = stopped-flow CO2 hydration; how to read = relative to: Ki CA I over Ki CA XII; endpoint = selectivity ratio; result = 1130
